Results gathered from unrelated publications.
Lines come from different studies, so protocols differ. “And” joins repeats or separate records; there may be more than shown. ± marks the error that the study gave.
B1: yihE 1-328 (Escherichia coli, UniProt P0C0K3); chain MNNSAFTFQTLHPDTIMDALFEHGIRVDSGLTPLNSYENRVYQFQDEDRRRFVVKFYRPERWTADQILEEHQFALQLVNDEVPVAAPVAFNGQTLLNHQGFYFAVFPSVGGRQFEADNIDQMEAVGRYLGRMHQTGRKQLFIHRPTIGLNEYLIEPRKLFEDATLIPSGLKAAFLKATDELIAAVTAHWREDFTVLRLHGDCHAGNILWRDGPMFVDLDDARNGPAVQDLWMLLNGDKAEQRMQLETIIEAYEEFSEFDTAEIGLIEPLRAMRLVYYLAWLMRRWADPAFPKNFPWLTGEDYWLRQTATFIEQAKVLQEPPLQLTPMY
B2: EFR3A 721-791 A734R (Homo sapiens, UniProt Q14156); chain SNTEEITFEALKKRIDTSGMEEQEKEKRRLVIEKFQKAPFEEIAAQCESKANLLHDRLAQILELTIRPPPS
B3: boss 32-530 H480D (Drosophila melanogaster, UniProt P22815); sequence looked up; chain CHGADLTSPTKKSAPLRITKPQPTSQQAKPISITTRAPTTVASTTDDEVSSSVDGQLAPLISSTTEGPSSGTTASLVPEICLNGLQLTVNSADEGTVIRKQEEFVKILEGDVVLSVLTKDPDSALFVINRVNQANLIMADFEIGIRAISIDNASLAENLLIQEVQFLQQCTTYSMGIFVDWELYKQLESVIKDLEYNIWPIPGTRAHLFPKVAHLLHQMPWGEKIASVEIATETLEMYNEFMEAARQEHMCLMHFKSDDNVYIMFGNKLASHFKENGTLFSVPTDRTDDEFLADLPNRAFVLMENEIDLSTAVELDATPTALDEILIGKSVLPSRVLSFAGSIIDLMNWLRGSLSKHCKRGEEHDLYVLESCFNFLNFIEDWRTSEYRQAHDTAEILSLLLMRKLGTAMNFQMYQKKVLTLDKITGESRTELREIASQNFVTNVTTYYDYNRDNHTSLELKTKFGQVFNCQYSAGDNRRYPFLFDGESVMFWRIKMDTW
B4: PUM1 701-1186 (Homo sapiens, UniProt Q14671); sequence looked up; chain TGSGSRRDSLTGSSDLYKRTSSSLTPIGHSFYNGLSFSSSPGPVGMPLPSQGPGHSQTPPPSLSSHGSSSSLNLGGLTNGSGRYISAAPGAEAKYRSASSASSLFSPSSTLFSSSRLRYGMSDVMPSGRSRLLEDFRNNRYPNLQLREIAGHIMEFSQDQHGSRFIQLKLERATPAERQLVFNEILQAAYQLMVDVFGNYVIQKFFEFGSLEQKLALAERIRGHVLSLALQMYGCRVIQKALEFIPSDQQNEMVRELDGHVLKCVKDQNGNHVVQKCIECVQPQSLQFIIDAFKGQVFALSTHPYGCRVIQRILEHCLPDQTLPILEELHQHTEQLVQDQYGNYVIQHVLEHGRPEDKSKIVAEIRGNVLVLSQHKFASNVVEKCVTHASRTERAVLIDEVCTMNDGPHSALYTMMKDQYANYVVQKMIDVAEPGQRKIVMHKIRPHIATLRKYTYGKHILAKLEKYYMKNGVDLGPICGPPNGII
B5: HY5 S36D (Arabidopsis thaliana, UniProt O24646); sequence looked up; chain MQEQATSSLAASSLPSSSERSSSSAPHLEIKEGIEDDEEIRRVPEFGGEAVGKETSGRESGSATGQERTQATVGESQRKRGRTPAEKENKRLKRLLRNRVSAQQARERKKAYLSELENRVKDLENKNSELEERLSTLQNENQMLRHILKNTTGNKRGGGGGSNADASL
B6: lpdA (Escherichia coli, UniProt P0A9P0); sequence looked up; chain MSTEIKTQVVVLGAGPAGYSAAFRCADLGLETVIVERYNTLGGVCLNVGCIPSKALLHVAKVIEEAKALAEHGIVFGEPKTDIDKIRTWKEKVINQLTGGLAGMAKGRKVKVVNGLGKFTGANTLEVEGENGKTVINFDNAIIAAGSRPIQLPFIPHEDPRIWDSTDALELKEVPERLLVMGGGIIGLEMGTVYHALGSQIDVVEMFDQVIPAADKDIVKVFTKRISKKFNLMLETKVTAVEAKEDGIYVTMEGKKAPAEPQRYDAVLVAIGRVPNGKNLDAGKAGVEVDDRGFIRVDKQLRTNVPHIFAIGDIVGQPMLAHKGVHEGHVAAEVIAGKKHYFDPKVIPSIAYTEPEVAWVGLTEKEAKEKGISYETATFPWAASGRAIASDCADGMTKLIFDKESHRVIGGAIVGTNGGELLGEIGLAIEMGCDAEDIALTIHAHPTLHESVGLAAEVFEGSITDLPNPKAKKK
B7: ckap5-a 1560-1839 (Xenopus laevis, UniProt Q9PT63); sequence looked up; chain SPHFDDMHSNTASTINFVISQVASVDINASIQALAQIDEVLRQEDKAEAMSGHIDQFLIATFMQLRLAYNTHMADERLDKDDIVRLYSCIIGNMISLFQMESLAREASTGVLKDLMHGLISLMLDARIEDLEEGQQVVRSVNLLVVKVLEKSDQTNIISALLMLLQDSLLATASSPNFSELVMKCLWRMIRLLPEAINNLNLDRILLDIHNFMRVLPKEKLKQHKSEMPMRTLKTLLHTLCKLKGPKIMDHLSMIENKHESELEAHLLRVMKHSIDRTGS
B8: AIR2 1-223 (Saccharomyces cerevisiae, UniProt Q12476); sequence looked up; chain MEKNTAPFVVDTAPTTPPDKLVAPSIEEVNSNPNELRALRGQGRYFGVSDDDKDAIKEAAPKCNNCSQRGHLKKDCPHIICSYCGATDDHYSRHCPKAIQCSKCDEVGHYRSQCPHKWKKVQCTLCKSKKHSKERCPSIWRAYILVDDNEKAKPKVLPFHTIYCYNCGGKGHFGDDCKEKRSSRVPNEDGSAFTGSNLSVELKQEYYRHMNRNSDENEDYQFS
B9: POMP (Homo sapiens, UniProt Q9Y244); chain MNARGLGSELKDSIPVTELSASGPFESHDLLRKGFSCVKNELLPSHPLELSEKNFQLNQDKMNFSTLRNIQGLFAPLKLQMEFKAVQQVQRLPFLSSSNLSLDVLRGNDETIGFEDILNDPSQSEVMGEPHLMVEYKLGLL
B10: rasC Q62L (Dictyostelium discoideum, UniProt P32253); sequence looked up; chain MSKLLKLVIVGDGGVGKSALTIQLTQNQFIAEYDPTIENSYRKQVNIDEEVYMLDILDTAGLEEYSAMRDQYIRSGRGFLIVYSIISRASFEAVTTFREQILRVKDLSTYPIVIIGNKADLPDKDRKVPPMEGKELAKSFGAPFLETSAKSRVNVEEAFFTLVREIKRWNQNPQNEEMLPPKKRGCIIL
B11: CCDC32 66-130 (Mus musculus, UniProt Q8BS39); chain KPWAPLHDSEVYLASLEKKLRRIKGLNEEVTSKDMLRTLAQAKKECWDRFLQEKLASEFFVDGLD
B12: MED2/PGD1 four-helix bundle 1-431 (Saccharomyces cerevisiae); chain 1 MVVQNSPVSSVHTANFSERGSNTRTMTYKNKLTVCFDDILKVGAEMMMQQQLKNVQLDSYLVNGFSQSQQKLLKEKVKLFHGILDDLETSLSQSSSYLETLTALGKEKEKEREEAEKKRAEQENMRKVREQEELKKRQELEEASQQQQLQQNSKEKNGLGLNFSTTAPANTTDANGSKENYQELGSLQSSSQTQLENANAANNGAAFSPLTTTRIQSQQAQPSDVMFNDLNSMDISMFSGLDSTGFDSTAFNATVDETKGFDDNDSGNNYNDINISSIENNINNNINSTKNGKDNNNESNKNNNGDEKNKNNNEDNENNNNSSEKNNNNNNNNNNNNDDNGNNNNNNSGNDNNNTTNNDSNNKNNSITTGNDNENIVNNDLPTTVVSNPGDNPPPADNGEEYLTLNDFNDLNIDWSTTGDNGELDLSGFNI; chain 2 MDSIIPAGVKLDDLQVILAKNENETRDKVCKQINEARDEILPLRLQFNEFIQIMANIDQEGSKQADRMAKYLHIRDKILQLNDRFQTLSSHLEALQPLFSTVPEYLKTADNRDRSFQLLEPLSTYNKNGNAVCSTATVVSTNHSAAASTPTTTATPHANPITHAHSLSNPNSTATMQHNPLAGKRGPKSGSTMGTPTVHNSTAAAPIAAPKKPRKPRQTKKAKAQAQAQAQAQAQVYAQQSTVQTPITASMAAALPNPTPSMINSVSPTNVMGTPLTNMMSPMGNAYSMGAQNQGGQVSMSQFNGSGNGSNPNTNTNSNNTPLQSQLNLNNLTPANILNMSMNNDFQQQQQQQQQQQQPQPQYNMNMGMNNMNNGGKELDSLDLNNLELGGLNMDFL
UniProt P48067, sequence (whole entry, looked up): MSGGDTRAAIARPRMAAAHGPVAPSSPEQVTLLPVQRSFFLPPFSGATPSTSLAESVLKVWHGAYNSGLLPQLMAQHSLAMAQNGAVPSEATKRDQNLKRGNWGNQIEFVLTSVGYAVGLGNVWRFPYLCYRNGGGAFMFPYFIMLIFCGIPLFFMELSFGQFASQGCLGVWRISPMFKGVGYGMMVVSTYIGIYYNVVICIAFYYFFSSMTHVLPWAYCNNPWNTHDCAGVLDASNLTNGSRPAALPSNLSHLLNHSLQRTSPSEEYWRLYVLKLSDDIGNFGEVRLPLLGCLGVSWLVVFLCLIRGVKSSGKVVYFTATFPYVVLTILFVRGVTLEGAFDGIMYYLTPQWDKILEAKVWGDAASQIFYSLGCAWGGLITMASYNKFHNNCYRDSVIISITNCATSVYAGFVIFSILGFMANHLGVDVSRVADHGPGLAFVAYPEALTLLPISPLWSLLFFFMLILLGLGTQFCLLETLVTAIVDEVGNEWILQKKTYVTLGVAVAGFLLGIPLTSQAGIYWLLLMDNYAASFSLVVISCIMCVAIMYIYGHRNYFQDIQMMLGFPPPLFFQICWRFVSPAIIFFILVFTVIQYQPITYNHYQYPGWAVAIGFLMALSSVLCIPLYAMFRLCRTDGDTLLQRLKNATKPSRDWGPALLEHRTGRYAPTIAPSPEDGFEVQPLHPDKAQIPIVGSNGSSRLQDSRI
UniProt Q64663, sequence (whole entry, unmodified, looked up): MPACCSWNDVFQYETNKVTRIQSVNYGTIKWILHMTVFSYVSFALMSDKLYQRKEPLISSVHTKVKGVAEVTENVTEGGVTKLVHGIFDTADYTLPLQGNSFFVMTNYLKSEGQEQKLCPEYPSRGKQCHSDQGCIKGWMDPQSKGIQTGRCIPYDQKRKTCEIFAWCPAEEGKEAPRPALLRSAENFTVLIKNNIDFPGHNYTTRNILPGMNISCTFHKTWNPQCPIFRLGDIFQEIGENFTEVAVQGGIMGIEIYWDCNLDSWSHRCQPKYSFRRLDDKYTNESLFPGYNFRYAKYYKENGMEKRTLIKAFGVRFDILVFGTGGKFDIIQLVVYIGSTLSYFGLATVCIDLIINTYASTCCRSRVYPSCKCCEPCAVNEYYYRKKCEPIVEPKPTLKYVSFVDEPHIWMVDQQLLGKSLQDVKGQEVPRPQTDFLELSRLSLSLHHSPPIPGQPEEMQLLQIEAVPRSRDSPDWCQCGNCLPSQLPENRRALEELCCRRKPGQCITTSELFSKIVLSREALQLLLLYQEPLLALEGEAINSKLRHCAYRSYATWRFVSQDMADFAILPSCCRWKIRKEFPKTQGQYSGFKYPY
UniProt P13382, sequence (whole entry, looked up): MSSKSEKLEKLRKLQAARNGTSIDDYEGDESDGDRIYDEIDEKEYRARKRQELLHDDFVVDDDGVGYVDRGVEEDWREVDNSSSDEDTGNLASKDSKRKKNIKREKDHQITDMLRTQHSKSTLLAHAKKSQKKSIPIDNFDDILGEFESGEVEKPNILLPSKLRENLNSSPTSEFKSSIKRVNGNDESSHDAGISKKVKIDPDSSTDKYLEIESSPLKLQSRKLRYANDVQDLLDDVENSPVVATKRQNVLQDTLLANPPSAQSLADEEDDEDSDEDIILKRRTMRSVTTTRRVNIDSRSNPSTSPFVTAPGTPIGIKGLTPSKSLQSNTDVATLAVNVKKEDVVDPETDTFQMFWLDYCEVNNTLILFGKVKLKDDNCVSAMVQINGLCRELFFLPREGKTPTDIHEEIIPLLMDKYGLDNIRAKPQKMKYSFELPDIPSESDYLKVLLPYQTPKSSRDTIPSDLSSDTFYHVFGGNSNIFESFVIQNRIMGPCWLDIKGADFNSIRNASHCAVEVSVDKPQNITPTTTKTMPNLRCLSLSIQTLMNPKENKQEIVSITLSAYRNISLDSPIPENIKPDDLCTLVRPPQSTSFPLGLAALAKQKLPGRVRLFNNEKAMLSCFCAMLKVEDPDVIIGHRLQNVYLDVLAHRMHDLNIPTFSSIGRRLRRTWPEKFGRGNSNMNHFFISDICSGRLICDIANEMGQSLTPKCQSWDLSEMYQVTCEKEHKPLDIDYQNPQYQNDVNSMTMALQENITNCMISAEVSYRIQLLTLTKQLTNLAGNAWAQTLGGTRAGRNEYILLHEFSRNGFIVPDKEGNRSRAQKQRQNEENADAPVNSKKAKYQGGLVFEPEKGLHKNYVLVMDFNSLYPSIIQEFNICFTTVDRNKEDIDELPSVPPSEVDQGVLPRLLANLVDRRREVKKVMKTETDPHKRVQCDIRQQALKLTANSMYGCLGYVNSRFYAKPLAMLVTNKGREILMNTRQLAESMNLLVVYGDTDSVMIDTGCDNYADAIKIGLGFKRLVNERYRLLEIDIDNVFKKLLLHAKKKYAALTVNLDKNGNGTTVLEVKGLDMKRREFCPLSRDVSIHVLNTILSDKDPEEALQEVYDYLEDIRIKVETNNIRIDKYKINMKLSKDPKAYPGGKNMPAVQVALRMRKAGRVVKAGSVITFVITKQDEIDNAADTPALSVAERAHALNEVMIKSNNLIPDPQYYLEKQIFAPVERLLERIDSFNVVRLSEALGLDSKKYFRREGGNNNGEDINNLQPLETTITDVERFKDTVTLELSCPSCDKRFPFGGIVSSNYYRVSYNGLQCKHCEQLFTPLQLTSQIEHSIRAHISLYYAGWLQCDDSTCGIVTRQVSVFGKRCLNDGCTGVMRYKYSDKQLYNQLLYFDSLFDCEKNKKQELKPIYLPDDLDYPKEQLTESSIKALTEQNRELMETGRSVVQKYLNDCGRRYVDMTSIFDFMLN
UniProt P25789, sequence (whole entry, looked up): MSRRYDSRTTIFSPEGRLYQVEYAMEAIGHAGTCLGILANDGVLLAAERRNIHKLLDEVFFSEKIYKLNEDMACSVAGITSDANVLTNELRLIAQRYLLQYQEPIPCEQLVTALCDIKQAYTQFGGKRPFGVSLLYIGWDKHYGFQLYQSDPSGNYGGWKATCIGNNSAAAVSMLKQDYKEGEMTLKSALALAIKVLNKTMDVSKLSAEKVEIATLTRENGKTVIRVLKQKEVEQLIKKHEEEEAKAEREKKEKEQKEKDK
UniProt P23258, sequence (whole entry, looked up): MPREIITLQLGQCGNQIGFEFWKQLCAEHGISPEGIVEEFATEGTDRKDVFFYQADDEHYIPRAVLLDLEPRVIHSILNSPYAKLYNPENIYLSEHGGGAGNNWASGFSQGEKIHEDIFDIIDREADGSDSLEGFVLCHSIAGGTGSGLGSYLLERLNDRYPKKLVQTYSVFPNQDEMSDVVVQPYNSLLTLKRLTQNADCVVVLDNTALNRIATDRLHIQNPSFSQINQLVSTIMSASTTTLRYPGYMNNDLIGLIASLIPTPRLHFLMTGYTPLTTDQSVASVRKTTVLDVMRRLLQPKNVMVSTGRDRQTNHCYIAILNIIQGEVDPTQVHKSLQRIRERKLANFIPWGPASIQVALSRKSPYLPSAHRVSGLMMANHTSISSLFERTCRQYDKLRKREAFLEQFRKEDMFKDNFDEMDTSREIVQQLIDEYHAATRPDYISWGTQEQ
UniProt P19659, sequence (whole entry, looked up): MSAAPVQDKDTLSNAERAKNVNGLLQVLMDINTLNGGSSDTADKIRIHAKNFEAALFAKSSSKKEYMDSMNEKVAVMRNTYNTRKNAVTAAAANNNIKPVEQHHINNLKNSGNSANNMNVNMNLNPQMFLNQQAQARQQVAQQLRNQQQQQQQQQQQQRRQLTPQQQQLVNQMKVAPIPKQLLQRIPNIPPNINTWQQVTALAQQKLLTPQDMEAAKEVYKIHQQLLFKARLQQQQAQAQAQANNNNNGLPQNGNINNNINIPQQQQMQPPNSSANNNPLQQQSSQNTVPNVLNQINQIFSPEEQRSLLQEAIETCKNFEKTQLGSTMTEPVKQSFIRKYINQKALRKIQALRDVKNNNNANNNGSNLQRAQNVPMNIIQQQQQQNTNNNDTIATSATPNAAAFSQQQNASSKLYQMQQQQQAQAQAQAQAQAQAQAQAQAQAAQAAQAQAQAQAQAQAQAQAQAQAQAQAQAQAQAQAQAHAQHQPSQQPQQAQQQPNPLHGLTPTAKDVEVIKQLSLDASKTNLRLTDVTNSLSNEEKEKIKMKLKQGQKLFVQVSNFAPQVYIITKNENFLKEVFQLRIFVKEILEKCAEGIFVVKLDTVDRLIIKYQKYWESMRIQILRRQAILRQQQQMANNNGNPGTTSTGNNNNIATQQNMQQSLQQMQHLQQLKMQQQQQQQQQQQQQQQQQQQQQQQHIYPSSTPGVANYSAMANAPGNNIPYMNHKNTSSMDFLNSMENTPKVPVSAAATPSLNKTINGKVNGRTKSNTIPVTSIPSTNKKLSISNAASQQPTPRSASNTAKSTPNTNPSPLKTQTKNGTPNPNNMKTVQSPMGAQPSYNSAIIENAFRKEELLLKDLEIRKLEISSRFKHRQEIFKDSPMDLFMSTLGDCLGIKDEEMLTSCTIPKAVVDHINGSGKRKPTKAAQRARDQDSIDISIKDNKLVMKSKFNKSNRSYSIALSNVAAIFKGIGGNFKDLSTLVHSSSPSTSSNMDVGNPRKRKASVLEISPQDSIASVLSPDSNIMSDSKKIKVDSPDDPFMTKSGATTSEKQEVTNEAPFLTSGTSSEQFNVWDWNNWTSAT
UniProt P0AG30, sequence (whole entry, looked up): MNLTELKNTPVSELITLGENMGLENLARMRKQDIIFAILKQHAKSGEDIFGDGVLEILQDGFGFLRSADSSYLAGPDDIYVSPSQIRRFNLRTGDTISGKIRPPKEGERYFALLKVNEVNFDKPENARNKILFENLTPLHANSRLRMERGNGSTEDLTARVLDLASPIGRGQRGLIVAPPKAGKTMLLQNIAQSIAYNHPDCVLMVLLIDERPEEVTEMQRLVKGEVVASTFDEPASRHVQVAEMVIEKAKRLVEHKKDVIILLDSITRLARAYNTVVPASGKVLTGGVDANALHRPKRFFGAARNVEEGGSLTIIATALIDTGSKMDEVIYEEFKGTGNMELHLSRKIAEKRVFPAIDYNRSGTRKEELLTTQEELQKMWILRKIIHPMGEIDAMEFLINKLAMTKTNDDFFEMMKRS

GDYSKRVYQGVRVKHTVKDLLAEKRSGQTSNSRLNGSVSSS (POU2AF2 6-46 (Homo sapiens, UniProt Q8IXP5); sequence looked up)  binding (POU2F3 183-341 (Homo sapiens, UniProt Q9UKI9-1); crystal structure): binds
GSGAGKETYY  normalised SPR binding response (human MAGI1-3/6 PDZ construct (MBP fusion); surface plasmon resonance; peptide; concentration not given; higher = stronger binding): 0 normalised RU
PRKCQ (Homo sapiens, UniProt Q04759)  binding (PTK2 (Homo sapiens, UniProt Q05397); pull-down): binds
Peginesatide  phosphorylation level (UT7/EPO; tyrosine phosphorylation, LC-MS/MS phosphoproteomics, GluC, item: GAB1 tyrosine 317; 10 nM, 15 min, added: 10 U/mL EPO; reference: vehicle): 14.2 fold
FGA (Homo sapiens, UniProt P02671)  cross-linked residues (CENPH (Homo sapiens, UniProt Q9H3R5); cross-linking MS; added: DSSO): K238 to K58
methyl-β-cyclodextrin  glycine uptake rate (SLC6A9 (Homo sapiens, UniProt P48067); transport activity, [3H]glycine uptake; 2.5 mg/mL, 1 min, added: glycine 300 µM; higher = more transport): 53.8 a.u. and 54.1 a.u. and 44.4 a.u. and 43.7 a.u.
B1 (yihE 1-328)  binding (rho 1-419 (Escherichia coli, UniProt P0AG30); pull-down): binds
B2 (EFR3A 721-791 A734R)  binding (TTC7B/FAM126A FAM126A 1-308 (Homo sapiens); BLI): binds
B3 (boss 32-530 H480D)  binding (sev extracellular domain 123-2119 furin site removed (Drosophila melanogaster, UniProt P13368); SPR): binds
B4 (PUM1 701-1186)  binding (CNOT1/CNOT2/CNOT3 NOT module 1833-2361; pull-down): binds
B5 (HY5 S36D)  binding (UBP14 (Arabidopsis thaliana, UniProt Q8L6Y1); pull-down): binds
B6 (lpdA)  binding (aceF (Escherichia coli, UniProt P06959); negative-stain EM, thermal unfolding): binds
GSGAGSETKM  binding intensity (human SCRIB PDZ3-4 tandem (MBP fusion); automated holdup; peptide, crude extract; concentration not given, corrected by standard peak, unit not given; reference: biotin control resin, higher = stronger binding): -0.0331
DVLLLDVTPLS (HSPA9 interdomain linker, 434-444 (Homo sapiens))  binding (HSPA9 NBD 52-431 Y128C (Homo sapiens, UniProt P38646); BLI; peptide; added: ADP): binds
BzATP  normalized current (P2X purinoceptor 7 (P2rx7, Rattus norvegicus, UniProt Q64663, I214A/R125A); ion current, agonist, two-electrode voltage clamp; Xenopus laevis oocytes; 100 µM; reference: highest concentration response): 0.9 and 0.922 and 0.91
colistin  MIC (Pseudomonas aeruginosa; broth microdilution; clinical isolate RKI-No_584/15): 1 µg/mL
B7 (ckap5-a 1560-1839)  binding (TUBG1 (Homo sapiens, UniProt P23258); pull-down): binds
B8 (AIR2 1-223)  binding (PAP2 D236A/D238A (Saccharomyces cerevisiae, UniProt P53632); HDX-MS): binds
POL12 (Saccharomyces cerevisiae, UniProt P38121)  binding (POL1 (Saccharomyces cerevisiae, UniProt P13382); cryo-EM): binds
SKKVTRRPKASDYQRL (TGOLN1 YxxΦ peptide; N-terminal oleic acid/Lys(FITC)2)  binding (AP2A2/AP2B1/AP2M1/AP2S1 core, lacking appendage domains (Mus musculus); liposome binding; peptide, liposomes): binds
11-deoxycorticosterone  rate constant k-2 (CYP11B2 (human); substrate binding, stopped-flow global kinetic fitting; purified enzyme; 3-state induced fit model, added: equimolar adrenodoxin): 0.981 ± 0.0754 s⁻¹
B9 (POMP)  binding (PSMA4 (Homo sapiens, UniProt P25789); cryo-EM): binds
B10 (rasC Q62L)  binding (racE T25N/S192D (Dictyostelium discoideum); SEC): binds
B11 (CCDC32 66-130)  binding (AP-2 α/σ2 (Mus musculus); pull-down): binds
B12  binding (GAL11 (Saccharomyces cerevisiae, UniProt P19659); cryo-EM): binds

Some of these lines once more:
B4 (PUM1 701-1186)  binding (CNOT1/CNOT2/CNOT3 NOT module 1833-2361; pull-down): binds
